Results gathered from unrelated publications.
Compare with care: the assays were run in different laboratories. Numbers after ± are the reported error.
APP: Amyloid-beta precursor protein (APP, Homo sapiens, UniProt P05067)
APP Aβ40 fibrils: Amyloid-beta precursor protein, Aβ40 fibrils (APP, Homo sapiens, UniProt P05067)
APP Aβ42 aggregates: Amyloid-beta precursor protein, Aβ42 aggregates (APP, Homo sapiens, UniProt P05067)
APP amyloid-beta aggregates: Amyloid-beta precursor protein, amyloid-beta aggregates (APP, Homo sapiens, UniProt P05067)

For CN(C)c1ccc(-c2ccc3cc(OCC(O)CF)ccc3n2)cc1 (stereo not shown), the Ki was 0.0266 µM (APP; ligand displacement, radioligand).
COc1cc(-c2nc3ccccc3s2)cc(CN2Cc3cccc(n3)CN(C)Cc3cccc(n3)C2)c1O gave a Ki of 0.325 ± 0.025 µM (APP Aβ40 fibrils; Aβ fibril binding, ThT fluorescence competition; Cu complex of ligand, Aβ 2 µM, added: thioflavin T 1 µM).
For COCCOCCOCCOC(=O)/C(C#N)=C/c1ccc2cc(N3CCOCC3)ccc2c1, the Kd was 13.8 ± 3.1 µM (APP Aβ42 aggregates; binding, fluorescence titration; 5% DMSO in water, added: aggregated Abeta42 5 µM).
With OC(Cc1cc(-c2ccc(C(O)C(F)(F)F)s2)sc1-c1ccc(-c2sc(-c3ccc(C(O)C(F)(F)F)s3)cc2CC(O)C(F)(F)F)s1)C(F)(F)F (stereo not shown) the Kd was 3.79 ± 0.34 µM (Amyloid-beta precursor protein, Aβ40 aggregates (APP, Homo sapiens, UniProt P05067); amyloid-beta aggregate binding, fluorescence; 24 h aggregation).
The Kd of CCCCN(CCCC)c1ccc(C=C(C#N)C(=O)OCCOCCOCCOC)cc1 is reported as 4.4 µM (APP Aβ42 aggregates; binding, fluorescence titration; added: pre-aggregated Aβ(1-42) 5.0 µM).
With COc1cc(O)c2c(c1O)OC(c1ccccc1)CC2=O (stereo not shown) the IC50 was 55.3 ± 2 µM (APP).
For CN(C)c1ccc(C=C(C#N)C(=O)OCC(O)CO)cc1 (stereo not shown), the IC50 was 82.1 µM (APP amyloid-beta aggregates; IgG-amyloid beta binding, inhibitor, ELISA; 50 % inhibition, added: aggregated amyloid beta).
CNc1ccc(-c2nc3ccc(OCCCCCN4CCN5CCN(CC4)CC(=O)[O][Al]([F])[O]C(=O)C5)cc3s2)cc1 has a Ki of 0.0409 µM (Amyloid-beta precursor protein, fibril (APP, Homo sapiens, UniProt P05067); ligand displacement, radioligand).
COCCOCCOCCOC(=O)C(C#N)=Cc1ccc2cc(N3CCCCC3)ccc2c1 gave a Kd of 2.5 µM (APP Aβ42 aggregates; binding, fluorescence titration; added: pre-aggregated Aβ(1-42) 5.0 µM).
For O=C(C=Cc1ccc(O)c(OC(F)(F)F)c1)C(CCOCCOCCOCCO)C(=O)C=Cc1ccc(O)c(OC(F)(F)F)c1 (stereo not shown), the IC50 was 1.85 µM (APP amyloid-beta aggregates; binding, thioflavin T competition).
For Cc1noc(-c2ccc(-n3cnc(C(=O)NCc4cccs4)c3)nc2)n1, the Ki was greater than 1 µM (Amyloid-beta precursor protein, amyloid-beta (APP, Homo sapiens, UniProt P05067); binding, competition binding; Alzheimer brain homogenate; added: [3H]PiB).
For COc1ccc(-c2cc(=O)c3c(O)cc(O)c(-c4cc(-c5cc(=O)c6c(O)cc(OC)cc6o5)ccc4OC)c3o2)cc1, the IC50 was 2.28 µM (APP; amyloid aggregation, inhibitor, fluorescence).
COc1cc(-c2nc3ccccc3s2)cc(CN2Cc3cccc(n3)CN(CC(=O)O)Cc3cccc(n3)C2)c1O gave a Ki of 0.32 ± 0.04 µM (APP Aβ40 fibrils; amyloid-β fibril binding, ThT fluorescence competition; Aβ 2 µM, added: ThT 1 µM).
With COc1cc(OC)c2c(O)c3c(cc2c1)OC(C)(O)CC3=O (stereo not shown) the IC50 was 65.9 µM (APP; amyloid aggregation, inhibitor, fluorescence).
CNc1ccc(-c2nc3ccc(O)c(CN4CCN(C)CCN(C)CC4)c3s2)cc1 has a Ki of 0.085 ± 0.009 µM (APP Aβ40 fibrils; binding to Aβ aggregates, ThT competition; Aβ 5 µM, added: ThT 2 µM).
COc1cc(-c2nc3ccccc3s2)cc(CN(C)Cc2ccccn2)c1O gave a Ki of 0.036 ± 0.006 µM (APP Aβ40 fibrils; binding, ThT competition; Aβ fibrils; Aβ 5 µM, added: ThT 2 µM).

For quick reference, copied from above:
COc1cc(-c2nc3ccccc3s2)cc(CN2Cc3cccc(n3)CN(CC(=O)O)Cc3cccc(n3)C2)c1O gave a Ki of 0.32 ± 0.04 µM (APP Aβ40 fibrils; amyloid-β fibril binding, ThT fluorescence competition; Aβ 2 µM, added: ThT 1 µM).
With COc1cc(OC)c2c(O)c3c(cc2c1)OC(C)(O)CC3=O (stereo not shown) the IC50 was 65.9 µM (APP; amyloid aggregation, inhibitor, fluorescence).
CNc1ccc(-c2nc3ccc(O)c(CN4CCN(C)CCN(C)CC4)c3s2)cc1 has a Ki of 0.085 ± 0.009 µM (APP Aβ40 fibrils; binding to Aβ aggregates, ThT competition; Aβ 5 µM, added: ThT 2 µM).
